Measured values of several laboratories.
Numbered parts are unrelated; each lists some results of a single study. Changes are numbered by the printed parent chain.

Set 1
Target: Histone acetyltransferase KAT6A, winged helix 2, GST fusion (KAT6A, Homo sapiens, UniProt Q92794, residues 85-181)
Technique: protein binding microarray
Molecule type: double-stranded DNA, one strand shown
Sample: in vitro
Tested at: not given
Setting: 8-mer, flanks averaged, mean of 2 arrays, mostly near background
Relative to: not given
Reading: higher = stronger binding
Residues (chain): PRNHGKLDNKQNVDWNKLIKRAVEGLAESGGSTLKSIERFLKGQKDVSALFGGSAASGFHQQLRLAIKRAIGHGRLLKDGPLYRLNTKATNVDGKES
The E-score of `AGACAGAA` is reported as 0.108.
For `AGGCCTCA`, the E-score was -0.161.
`AAGACCCT` has an E-score of -0.0124.
`ACCAGTAA` has an E-score of -0.00426.
For `ACAAGCGC`, the E-score was 0.0807.
With `CGCTACTA` the E-score was 0.0862.
The E-score of `CACTCGCG` is reported as 0.175.
`TCACCACA` gave an E-score of 0.0959.
The E-score of `AGGAGTAA` is reported as -0.113.
For `ACTCTTGA`, the E-score was -0.0669.
`ACGGCGAA` gave an E-score of 0.204.
With `TCGCTAAA` the E-score was 0.12.
`CAGTACAA` gave an E-score of -0.131.
The E-score of `ACTCCGGA` is reported as 0.162.
`CAAAAACA` has an E-score of 0.152.
For `ATTTCAAG`, the E-score was -0.0713.
The E-score of `AGTAAAAC` is reported as -0.0117.

Set 2
Target: CCNB2, cyclin fold, Cln2 fusion (human)
Technique: yeast growth competition, sequencing
Sample: yeast
Setting: weak parent motif
Relative to: not given
Reading: higher = stronger binding
Starting sequence: INSM1 docking peptide (human); PKAIRKLHFEDEV; partner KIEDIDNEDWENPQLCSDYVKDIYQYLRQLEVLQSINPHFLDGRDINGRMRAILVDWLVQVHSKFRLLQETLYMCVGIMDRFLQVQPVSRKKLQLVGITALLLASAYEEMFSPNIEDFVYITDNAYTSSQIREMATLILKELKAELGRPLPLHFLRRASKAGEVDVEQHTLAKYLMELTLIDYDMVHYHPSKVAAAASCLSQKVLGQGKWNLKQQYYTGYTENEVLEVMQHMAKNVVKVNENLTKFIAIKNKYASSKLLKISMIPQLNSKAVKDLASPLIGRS
Under “normalised enrichment score”, `I4Y` is recorded as 0.0836.
`R5N`: “normalised enrichment score” -0.26.
`E12M` — result for “normalised enrichment score”: 0.503.
Under “normalised enrichment score”, `D11F` is recorded as 0.39.
For `L7G`, “normalised enrichment score” read 0.157.
`E10S` — result for “normalised enrichment score”: 0.342.
`K2Q`: “normalised enrichment score” 0.398.
Under “normalised enrichment score”, `R5V` is recorded as 0.111.
`R5W` — result for “normalised enrichment score”: -0.204.

Set 3
Target: RNA binding protein fox-1 homolog 2, RRM domain, GST-SBP tag (RBFOX2, Homo sapiens, UniProt O43251-10, residues 100-194)
Technique: RNA Bind-n-Seq
Molecule type: RNA
Sample: in vitro
Tested at: 365 nM
Setting: natural RNA segment, single round, ends assumed
Relative to: no-protein control
Reading: higher = stronger binding
Target sequence (chain): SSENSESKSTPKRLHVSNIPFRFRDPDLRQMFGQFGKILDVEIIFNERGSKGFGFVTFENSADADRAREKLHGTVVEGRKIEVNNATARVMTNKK
For `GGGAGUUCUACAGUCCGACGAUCUGUCCCCACUCUCCUGGCCUGACAAGAUGAGCUCUCCUGGGACCUUGCUCUAGGGCACUCUGCCUCUACCCUAGGACACUGGAAUGCCCUGGGAGCCCCCUCCCUGCAACUGGAAUUCUCGGGUGCCAA`, “RBNS enrichment (R)” read 0.755.
`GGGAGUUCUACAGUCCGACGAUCAGCCUCUGAGACUAUCGCUCUUAACCAUGGAAAAGCUCAAAAUAUUCUUGCCAUUACUCAGUGUUCCUAUAAAGAAAAUAUUAUGAUAUCUUGGAAAGGUUCUAUUCCUGUGGAAUUCUCGGGUGCCAA` — result for “RBNS enrichment (R)”: 0.377.
`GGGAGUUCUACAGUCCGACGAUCGAAUGAUGCCGAAUGGAAUGUUUUGUGCAUGACCUUUUAACCUUUGGCUAUUGCCAAUUCCCCACUGCAAAGGGGAAGGCAGAUUUUAUGAAGAGUUUUAGGAAUAAAUAUGGAAUUCUCGGGUGCCAA` — result for “RBNS enrichment (R)”: 24.5.
`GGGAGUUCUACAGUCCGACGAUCGCCUGUGGCCCCUCACAUUCUCCAGGACCUGCCCUGCUAUGGGCCACUAACUGCUUGCUGGGGACAGGCAAACCCGGACUGUGCAAAGUUACUAGCCCGUAGCUCUUGGGUGGAAUUCUCGGGUGCCAA` — result for “RBNS enrichment (R)”: 0.298.
For `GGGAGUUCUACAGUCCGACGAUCGGUGAAGAGUUGCAAACCCCUCUGUCCCUGCAGUACUGCCUGAGUGUGUGGUGAUUCUGGGCUCUCCACAACCAGCUCAAAGCAGCUAGCACCCGUGCUCACUGUUGUUGUGGAAUUCUCGGGUGCCAA`, “RBNS enrichment (R)” read 0.535.
For `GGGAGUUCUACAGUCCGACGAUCCUUAGUAAGACUCUGGUUCACACCGUGAGUGUCGCGGUCAUUGAUGGGACCAGGGCAGUCACCAGUGCCGAAGAGCGGUCCCCUUCGUGGAUAUCUGCUUCCAUGACAGAUGGAAUUCUCGGGUGCCAA`, “RBNS enrichment (R)” read 0.341.
Under “RBNS enrichment (R)”, `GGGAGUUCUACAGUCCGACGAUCGCUUCUGUGUGUGGUGAGCAGAAGUGGAGCUGGGGGGCGUGGAGAGCCCGGCGCCCCUGCCACCUCCCUGACCCGUCUAAUAUAUAAAUAUAGAGAUGUGUCUAUGGCUGUGGAAUUCUCGGGUGCCAA` is recorded as 0.622.
`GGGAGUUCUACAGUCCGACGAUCAAAGCUGUUUCUUACAGAUGAAGUGCUUUCUUUGAAAGGUGGUUAUUUAGGUUUUAGAUGUUUAAUAGACACAGCACAUUUGCUCUAUUAACUCAGAGGCUCACUACAGAUGGAAUUCUCGGGUGCCAA`: “RBNS enrichment (R)” 0.751.
For `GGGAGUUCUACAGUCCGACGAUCUUUAUACUGUAAGUUAUUUUACUUCCCCUGGGACCCUUUCCAGUCCUCGUUUUACAUUCAUUCCUCUUUGGAUUUGCUUUGUGAUUUUGUUGUUGUUGAUGUUGUUGUUGUGGAAUUCUCGGGUGCCAA`, “RBNS enrichment (R)” read 1.
For `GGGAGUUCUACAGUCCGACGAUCAUCCCGUCUUAUGGUGAAAUGUAAAAGAGAAGGAGAUUUCCUGUAACUUUGCCCACAUUUGCUUCCGGAAGCAGCGCACAGCUGUCUGUAUGUUUAAAAGAUAGCAUCUAUGGAAUUCUCGGGUGCCAA`, “RBNS enrichment (R)” read 0.736.

Further values, each from its own experiment
The fold induction of `PhoQ, residues 284 288 289 292 302 303 NLCILV` is reported as 17 (PhoP, residues 12 14 15 18 19 NMSSL (Escherichia coli, UniProt P23836); Sort-seq, measured: YFP reporter; E. coli; PhoQ-PhoP variant library, added: 10 µM Mg2+; relative to: high Mg2+ state, higher = stronger signaling).

Some of these lines once more (set 3):
`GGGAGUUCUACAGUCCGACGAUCGAAUGAUGCCGAAUGGAAUGUUUUGUGCAUGACCUUUUAACCUUUGGCUAUUGCCAAUUCCCCACUGCAAAGGGGAAGGCAGAUUUUAUGAAGAGUUUUAGGAAUAAAUAUGGAAUUCUCGGGUGCCAA` — result for “RBNS enrichment (R)”: 24.5.
`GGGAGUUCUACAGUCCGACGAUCGCCUGUGGCCCCUCACAUUCUCCAGGACCUGCCCUGCUAUGGGCCACUAACUGCUUGCUGGGGACAGGCAAACCCGGACUGUGCAAAGUUACUAGCCCGUAGCUCUUGGGUGGAAUUCUCGGGUGCCAA` — result for “RBNS enrichment (R)”: 0.298.
For `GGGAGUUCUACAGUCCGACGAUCGGUGAAGAGUUGCAAACCCCUCUGUCCCUGCAGUACUGCCUGAGUGUGUGGUGAUUCUGGGCUCUCCACAACCAGCUCAAAGCAGCUAGCACCCGUGCUCACUGUUGUUGUGGAAUUCUCGGGUGCCAA`, “RBNS enrichment (R)” read 0.535.
For `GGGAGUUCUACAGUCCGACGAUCCUUAGUAAGACUCUGGUUCACACCGUGAGUGUCGCGGUCAUUGAUGGGACCAGGGCAGUCACCAGUGCCGAAGAGCGGUCCCCUUCGUGGAUAUCUGCUUCCAUGACAGAUGGAAUUCUCGGGUGCCAA`, “RBNS enrichment (R)” read 0.341.
Under “RBNS enrichment (R)”, `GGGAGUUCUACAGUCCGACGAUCGCUUCUGUGUGUGGUGAGCAGAAGUGGAGCUGGGGGGCGUGGAGAGCCCGGCGCCCCUGCCACCUCCCUGACCCGUCUAAUAUAUAAAUAUAGAGAUGUGUCUAUGGCUGUGGAAUUCUCGGGUGCCAA` is recorded as 0.622.
`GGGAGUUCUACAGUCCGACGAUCAAAGCUGUUUCUUACAGAUGAAGUGCUUUCUUUGAAAGGUGGUUAUUUAGGUUUUAGAUGUUUAAUAGACACAGCACAUUUGCUCUAUUAACUCAGAGGCUCACUACAGAUGGAAUUCUCGGGUGCCAA`: “RBNS enrichment (R)” 0.751.
